Assay results pooled from the literature.
A part holds a random share of what one study measured. “And” joins repeats or separate records; there may be more than shown.

Sample 1
Target: Serine/threonine-protein kinase haspin (HASPIN, Homo sapiens, UniProt Q8TF76)
Sequence of UniProt Q8TF76 (whole entry, looked up): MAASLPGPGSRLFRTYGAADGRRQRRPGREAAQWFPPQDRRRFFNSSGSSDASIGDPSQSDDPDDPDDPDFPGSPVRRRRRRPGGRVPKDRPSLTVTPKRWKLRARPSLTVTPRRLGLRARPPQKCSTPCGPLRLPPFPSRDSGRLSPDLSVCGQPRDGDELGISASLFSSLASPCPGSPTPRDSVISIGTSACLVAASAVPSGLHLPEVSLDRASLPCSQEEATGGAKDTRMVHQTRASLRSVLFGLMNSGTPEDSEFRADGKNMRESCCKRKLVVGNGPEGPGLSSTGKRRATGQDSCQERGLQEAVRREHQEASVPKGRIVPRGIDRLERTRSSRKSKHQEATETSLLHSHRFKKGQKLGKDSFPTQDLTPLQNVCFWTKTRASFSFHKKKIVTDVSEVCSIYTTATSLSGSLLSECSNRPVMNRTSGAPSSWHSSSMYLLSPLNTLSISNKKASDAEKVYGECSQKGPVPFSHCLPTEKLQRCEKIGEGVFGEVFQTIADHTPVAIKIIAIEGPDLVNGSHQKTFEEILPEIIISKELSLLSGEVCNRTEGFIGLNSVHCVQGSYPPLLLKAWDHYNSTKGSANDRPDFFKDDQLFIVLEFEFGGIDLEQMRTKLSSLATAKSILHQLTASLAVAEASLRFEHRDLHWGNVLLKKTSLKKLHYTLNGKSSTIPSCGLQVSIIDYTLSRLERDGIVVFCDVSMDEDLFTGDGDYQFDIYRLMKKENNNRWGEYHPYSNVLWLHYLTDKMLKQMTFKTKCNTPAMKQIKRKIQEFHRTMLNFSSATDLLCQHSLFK
Read-out: enzyme activity
Mode: inhibitor
Concentration: 0.5 µM
Baseline: control
Measurement: remaining activity
Ic1cccc(CSc2nnc(-c3ccncc3)o2)c1: 95.9%
Cc1cn(-c2cc(NC(=O)c3ccc(C)c(Nc4nccc(-c5cccnc5)n4)c3)cc(C(F)(F)F)c2)cn1: 66.5%
O=C1C(Cl)=C(N2C(=O)CCC2=O)C(=O)c2ccccc21: 101%
N#C/C(=C\c1ccc(O)c(O)c1)C(=O)NCc1ccccc1: 104%
c1ccc(-c2cnc(Nc3ccc(OCCN4CCCC4)cc3)s2)cc1: 106%
O=C1c2ccccc2-c2n[nH]c3cccc1c23: 35.3%
c1ccc(-c2[nH]ncc2-c2ccnc3ccccc23)nc1: 90.8%
Cc1nc2cc3nc(-c4cccs4)cnc3cc2n1C: 108%
COc1cc2ncnc(Nc3ccc(O)c(Br)c3)c2cc1OC: 84.8%
Nc1cccc(-c2cc3c(Oc4cccc(O)c4)ncnc3[nH]2)c1: 93.3%
CCN(CC)C(=O)c1ccc(Nc2nc(OCC3CCCCC3)c3[nH]cnc3n2)cc1: 94.1%
C[C@@H]1CCN(C(=O)CC#N)C[C@@H]1N(C)c1ncnc2[nH]ccc12: 77.9%
CN([C@@H](Cc1ccc(OS(=O)(=O)c2cccc3cnccc23)cc1)C(=O)N1CCN(c2ccccc2)CC1)S(=O)(=O)c1cccc2cnccc12: 94.7%
COc1cc2ncnc(Nc3cccc(Cl)c3)c2cc1OC: 84.8%
Cc1cc2ncc(-c3ccccc3)nc2cc1C: 91.5%
O=C(NC(NC(=S)Nc1ccc(F)c([N+](=O)[O-])c1)C(Cl)(Cl)Cl)C(c1ccccc1)c1ccccc1 (centres unmarked): 109%
CCOc1nc(NC(=O)Cc2cc(OC)ccc2OC)cc(N)c1C#N: 98.9%
O=C(Nc1cccc(Nc2nccc(Nc3cccc(C(F)(F)F)c3)n2)c1)C1CC1: 101%
Cn1nc2c3c(cccc31)C(=O)c1ccccc1-2: 53.1%
CN(C)C[C@H]1CCn2c(c(C3=C(c4cn(C)c5ccccc45)C(=O)NC3=O)c3ccccc32)C1: 100%
N#Cc1c(NC(=O)c2cccc3ccccc23)sc2c1CCCC2: 99%
COc1cc2c(cc1OC)-c1[nH]nc(Nc3cccc(F)c3)c1C2: 84.8%
CCN(CC)CCNC(=O)c1c(C)[nH]c(/C=C2\C(=O)Nc3ccc(F)cc32)c1C: 53.2%

Sample 2
SMILES: CN1CCN(Cc2cc(NC(=O)c3ccc4c(c3)CN(c3ccccc3)CC4)cc(C(F)(F)F)c2)CC1
Concentration: 1 µM
Baseline: DMSO
Measurement: viability
normal colon patient-derived organoid sample D: 67%
normal colon patient-derived organoid sample H: 72.4%
normal colon patient-derived organoid sample F: 77.5%
normal colon patient-derived organoid sample E: 94.4%
normal colon patient-derived organoid sample G: 82.1%
normal colon patient-derived organoids; CellTiter-Glo; average of five organoid lines: 78.7%
sample I colorectal tumour organoid: 80.5% and 96.6%

Sample 3
Cell line: mouse MPNST tumor cells
Method: high-content nuclear imaging
Refers to: cell number
Concentration: 10 µM
Time: 12 h
Notes: mean of 2 replicates
Baseline: plate mean
Reading: higher = more cells
Measurement: nuclei count
NS(=O)(=O)c1cc(C(=O)O)cc(N2CCCC2)c1Oc1ccccc1: 0.742 z-score
CN[C@@H]1[C@H](O[C@H]2[C@H](O[C@H]3[C@H](O)[C@@H](O)[C@H](NC(=N)N)[C@@H](O)[C@@H]3NC(=N)N)O[C@@H](C)[C@]2(O)CO)O[C@@H](CO)[C@H](O)[C@H]1O: 0.445 z-score
Cn1cc(-c2ccc3nnc(Sc4ccc5ncccc5c4)n3n2)cn1: 4.52 z-score
Cn1cnc2c1c(=O)[nH]c(=O)n2C: -0.767 z-score
CC(C)NNC(=O)c1ccncc1: 0.928 z-score
CC1=C(C(=O)OC2CCCCC2)C(c2ccc([N+](=O)[O-])cc2)C2=C(CC(C)(C)CC2=O)N1 (centres unmarked): -4.57 z-score
C[C@@H]1CN(CC(=O)Nc2ccc3c(c2)Cc2cccc(-c4cc(=O)cc(N5CCOCC5)o4)c2S3)C[C@H](C)O1: -1.89 z-score
COc1cc(C)c(Sc2cnc(NC(=O)c3ccc(CNC(C)C(C)(C)C)cc3)s2)cc1C(=O)N1CCN(C(C)=O)CC1 (centres unmarked): -3.99 z-score
CN(CCc1ccc(Cl)c(Cl)c1)CC(O)COc1ccc(NS(C)(=O)=O)cc1 (centres unmarked): 1.01 z-score
COc1cc2c(cc1-c1c(C)noc1C)ncc1[nH]c(=O)n([C@H](C)c3ccccn3)c12: -2.33 z-score
CC1CS(=O)(=O)CCN1/N=C/c1ccc([N+](=O)[O-])o1 (centres unmarked): 0.827 z-score
COc1cccc(/C=N/N(C(=O)C(F)(F)F)c2ccc(C)cc2C)c1: -0.00547 z-score
CC(C)(Oc1ccc(C2CC2(Cl)Cl)cc1)C(=O)O (centres unmarked): 1.57 z-score
Cc1csc(NC(=O)c2cc(F)cc(Oc3cncnc3)c2)n1: 1.06 z-score
CCCCCCOc1cc2c(cc1N(C)c1ncc(C(=O)O)cn1)C(C)(C)CCC2(C)C: 1.27 z-score

Sample 4
Cell line: A-375
Concentration: 100 µM
Time: 36 h
Measurement: viability
CCC1(c2ccccc2)C(=O)NCNC1=O: 123%
COC(=O)c1ccc2c(c1)NC(=O)/C2=C(\Nc1ccc(N(C)C(=O)CN2CCN(C)CC2)cc1)c1ccccc1: 111%
O=C(N/N=C/c1ccc([N+](=O)[O-])o1)c1ccc(O)cc1: 4.78%
C=C(c1ccc(C(=O)O)cc1)c1cc2c(cc1C)C(C)(C)CCC2(C)C: 2.38%
CN1CCC(=C2c3ccccc3CCc3sccc32)CC1: -2.61% and -0.0513%
CC(=O)Nc1c(I)c(NC(C)=O)c(I)c(C(=O)O)c1I: 106%
CC(=O)OC(C)C(C)C(=O)OC[C@@]12[C@H]3C[C@]4(C)C(=CC[C@@H]5[C@@]6(C)CC[C@H](O[C@@H]7O[C@H](C(=O)O)[C@@H](O[C@@H]8O[C@H](CO)[C@@H](O)[C@H](O)[C@H]8O)[C@H](O)[C@H]7O[C@@H]7OC[C@@H](O)[C@H](O)[C@H]7O)[C@@](C)(CO)[C@@H]6CC[C@]54C)[C@@H]1CC(C)(C)[C@H](O3)[C@@H]2O (some centres unmarked): 0.721%
NC(=O)N[C@@H](CCC(=O)O)C(=O)O: 110%
Nc1ccn([C@H]2CC[C@@H](CO)O2)c(=O)n1: 116%
COc1cc(NS(=O)(=O)c2ccc(N)cc2)nc(OC)n1: 54.5%
C[C@H](Cn1cnc2c(N)ncnc21)OCP(=O)(O)O: 102%
O=C(O)CCc1nc(-c2ccccc2)c(-c2ccccc2)o1: 94.1%
OC[C@@H](O)[C@@H](O[C@@H]1O[C@H](CO)[C@H](O)[C@H](O)[C@H]1O)[C@H](O)[C@@H](O)CO: 124%
C[N+](C)(C)CC(O)CC(=O)[O-] (racemic): 116%
COc1cc2nc(N3CCN(C(=O)C4CCCO4)CC3)nc(N)c2cc1OC (centres unmarked): 57.6%
C#C[C@]1(O)CC[C@H]2[C@@H]3CCc4cc(O)ccc4[C@H]3CC[C@@]21C: 13.4%
CCCC(=O)Nc1ccc(OCC(O)CNC(C)C)c(C(C)=O)c1 (centres unmarked): 93%
